Measured values of several laboratories.
Parts stem from different laboratories: compare values within a part only. Substitutions count along the parent as printed.

Block 1 — target: CCND3, cyclin fold, Cln2 fusion (human); method: yeast growth competition, sequencing; medium: yeast; setting: weak parent motif; baseline: not given; reading: higher = stronger binding
Starting sequence: E2F1 docking peptide (human); PPVKRRLDLETDH; partner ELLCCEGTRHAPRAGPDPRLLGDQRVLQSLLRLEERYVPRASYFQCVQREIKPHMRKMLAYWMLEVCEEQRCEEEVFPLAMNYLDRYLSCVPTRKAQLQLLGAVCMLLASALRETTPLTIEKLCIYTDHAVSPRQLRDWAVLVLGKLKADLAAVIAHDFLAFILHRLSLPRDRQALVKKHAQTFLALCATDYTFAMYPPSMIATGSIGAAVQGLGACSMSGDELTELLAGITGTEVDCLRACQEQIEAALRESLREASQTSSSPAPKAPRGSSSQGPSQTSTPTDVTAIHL
Under “normalised enrichment score”, `PPPKRRLDLETDH [V3P]` is recorded as 0.203.
Under “normalised enrichment score”, `PPMKRRLDLETDH [V3M]` is recorded as 0.128.
For `PPVKRRLDLEYDH [T11Y]`, “normalised enrichment score” read 0.219.
`PPVKRRLDLEMDH [T11M]`: “normalised enrichment score” 0.0377.
`PPVKRRLDLETIH [D12I]`: “normalised enrichment score” 0.0955.
`PPVMRRLDLETDH [K4M]`: “normalised enrichment score” 0.146.
`RPVKRRLDLETDH [P1R]`: “normalised enrichment score” -0.0154.
For `PPVKRRLDLETFH [D12F]`, “normalised enrichment score” read 0.261.
Under “normalised enrichment score”, `PPVKRRLDLETDE [H13E]` is recorded as 0.11.
`PPVKRRLDFETDH [L9F]` — result for “normalised enrichment score”: 0.413.
For `PPVKRRLDLEDDH [T11D]`, “normalised enrichment score” read 0.059.
`PPVKRRVDLETDH [L7V]`: “normalised enrichment score” 0.0287.
`PPTKRRLDLETDH [V3T]` — result for “normalised enrichment score”: 0.0837.
`PPVKRRLDLWTDH [E10W]`: “normalised enrichment score” 0.152.
`PPVKRRLDLETDG [H13G]` — result for “normalised enrichment score”: 0.202.
Under “normalised enrichment score”, `PPVKRRLDLETNH [D12N]` is recorded as 0.0573.
Under “normalised enrichment score”, `PPVKARLDLETDH [R5A]` is recorded as 0.096.

Block 2 — method: DHFR PCA, deep sequencing; medium: yeast; together with: (+)-ABA 200 µM; baseline: wild-type fitted maximum; reading: higher = stronger binding
Target: ABI1, truncated, D143A, DHFR fusion (Arabidopsis thaliana)
Setting: methotrexate growth selection, single substitutions
Starting sequence: PYL1, truncated, DHFR fusion (Arabidopsis thaliana); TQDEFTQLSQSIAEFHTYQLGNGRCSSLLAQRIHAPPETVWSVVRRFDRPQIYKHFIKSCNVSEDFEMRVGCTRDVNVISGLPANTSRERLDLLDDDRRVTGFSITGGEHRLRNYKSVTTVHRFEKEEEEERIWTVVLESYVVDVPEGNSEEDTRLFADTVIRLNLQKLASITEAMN; partner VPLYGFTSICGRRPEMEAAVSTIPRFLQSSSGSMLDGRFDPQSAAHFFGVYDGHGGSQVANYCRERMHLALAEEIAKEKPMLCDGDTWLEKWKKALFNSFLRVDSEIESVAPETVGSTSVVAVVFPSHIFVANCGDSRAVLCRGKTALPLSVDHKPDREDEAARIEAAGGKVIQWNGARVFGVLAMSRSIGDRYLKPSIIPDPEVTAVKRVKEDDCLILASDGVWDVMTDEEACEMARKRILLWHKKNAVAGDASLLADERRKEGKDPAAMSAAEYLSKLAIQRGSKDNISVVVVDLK
Under “relative binding score”, `F15T` is recorded as 62.6%.
Under “relative binding score”, `F66W` is recorded as 96.2%.
`W41D`: “relative binding score” -1.83%.
`A30W` — result for “relative binding score”: 96.9%.
`V161N`: “relative binding score” 4.52%.
For `E67G`, “relative binding score” read 94.2%.
`R24F`: “relative binding score” 80.4%.
`T6R`: “relative binding score” 104%.
For `E131A`, “relative binding score” read 108%.
`L28P` — result for “relative binding score”: -31.3%.
Under “relative binding score”, `F15Y` is recorded as 100%.
For `D92H`, “relative binding score” read 54.7%.
For `M68L`, “relative binding score” read 106%.
`R46Q` — result for “relative binding score”: 97.9%.
Under “relative binding score”, `D75A` is recorded as 100%.

Block 3 — method: Sort-seq; measured: YFP reporter; medium: E. coli; setting: PhoQ-PhoP variant library; together with: 10 µM Mg2+; baseline: high Mg2+ state; reading: higher = stronger signaling
Substance: PhoQ, residues 284 288 289 292 302 303 NLSRDF
It gave 11.2 for fold induction (PhoP, residues 12 14 15 18 19 NFFVT (Escherichia coli, UniProt P23836)).
PhoP, residues 12 14 15 18 19 VGHWL (Escherichia coli, UniProt P23836) — fold induction: 7.71.
PhoP, residues 12 14 15 18 19 LHHYF (Escherichia coli, UniProt P23836) — fold induction: 3.1.

Block 4 — method: protein binding microarray; molecule type: double-stranded DNA, one strand shown; medium: in vitro; concentration: not given; baseline: not given; reading: higher = stronger binding
Target: Histone acetyltransferase KAT6A, both winged helices, GST fusion (KAT6A, Homo sapiens, UniProt Q92794, residues 1-181)
Setting: 8-mer, flanks averaged, mean of 2 arrays, mostly near background
Target sequence (chain): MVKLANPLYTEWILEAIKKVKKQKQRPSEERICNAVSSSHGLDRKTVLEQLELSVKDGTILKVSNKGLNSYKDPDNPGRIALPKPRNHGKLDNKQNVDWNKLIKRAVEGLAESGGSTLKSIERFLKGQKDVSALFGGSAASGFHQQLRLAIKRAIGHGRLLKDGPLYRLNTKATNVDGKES
`AGCTAAAC` has an E-score of -0.154.
For `AAAAGGCG`, the E-score was 0.0912.
`CGCCCTAC` has an E-score of 0.0636.
`ATACTCGG` gave an E-score of 0.0891.
The E-score of `CGCGAACG` is reported as 0.291.
With `CCATTATA` the E-score was -0.0566.
For `CGTGGAAC`, the E-score was 0.182.
With `CTTCGAGA` the E-score was -0.0931.
The E-score of `ACATATTA` is reported as -0.0211.
`ACGCTTTG` has an E-score of 0.157.
The E-score of `ATCTCATG` is reported as 0.0155.
`CTGAGCTA` gave an E-score of -0.01.
For `AATTCATG`, the E-score was -0.0338.
`GCAACGCC` gave an E-score of 0.0501.
With `ATTAAGAA` the E-score was -0.11.
The E-score of `CTTGCTAC` is reported as -0.138.
For `GCGTGGAA`, the E-score was 0.156.
`TAAGAGTA` has an E-score of -0.225.
`AATCTCCA` gave an E-score of -0.118.
With `CGGCTGCA` the E-score was 0.196.
For `AGCGAACA`, the E-score was 0.0626.
`CTGATATA` has an E-score of -0.104.
`AACCACAT` gave an E-score of -0.12.
`GGCTGGAC` gave an E-score of -0.0283.

For quick reference, copied from above (block 4):
For `AAAAGGCG`, the E-score was 0.0912.
`CGCCCTAC` has an E-score of 0.0636.
`ATACTCGG` gave an E-score of 0.0891.
The E-score of `CGCGAACG` is reported as 0.291.
With `CCATTATA` the E-score was -0.0566.
